Assay results from different studies.
Protocols differ between the studies behind these lines. ± marks the error that the study gave.

SMILES	assay	test system	conditions	how to read	endpoint	value
C[C@@H]1NC(=O)[C@H](CCCCNC(=O)CO/N=C/C(=O)NCCCC[C@@H]2NC(=O)[C@@H](Cc3ccccc3)NC(=O)[C@H](CC(=O)O)NC(=O)CNC(=O)[C@H](CCCNC(=N)N)NC2=O)NC(=O)CNC(=O)[C@@H]2CCCN2C(=O)[C@H](CCCCNC(=O)CO/N=C/C(=O)NCCCC[C@@H]2NC(=O)[C@@H](Cc3ccccc3)NC(=O)[C@H](CC(=O)O)NC(=O)CNC(=O)[C@H](CCCNC(=N)N)NC2=O)NC(=O)[C@H](CCCCNC(=O)[C@H](CCCCN)NC(=O)[C@H](Cc2ccccc2)NC(=O)CNC(=O)CN2CCCNCCNCCCNCC2)NC(=O)[C@H](CCCCNC(=O)CO/N=C/C(=O)NCCCC[C@@H]2NC(=O)[C@@H](Cc3ccccc3)NC(=O)[C@H](CC(=O)O)NC(=O)CNC(=O)[C@H](CCCNC(=N)N)NC2=O)NC(=O)CNC(=O)[C@@H]2CCCN2C(=O)[C@H](CCCCNC(=O)CO/N=C/C(=O)NCCCC[C@@H]2NC(=O)[C@@H](Cc3ccccc3)NC(=O)[C@H](CC(=O)O)NC(=O)CNC(=O)[C@H](CCCNC(=N)N)NC2=O)NC1=O [copper-64 labelled]	RP-HPLC	mouse serum	24 h, 37 °C		intact fraction	91.8%
COc1ccc(-c2c(-c3ccc(C#N)c(F)c3)nc(N3CCC(N)CC3)n(C)c2=O)cc1F	item: Anemia	human patients	oral, dose not given, grade 3 to 4, dose escalation, NG		treatment-related adverse event incidence	0%
C[C@]1(O)C[C@@](N)(c2ccc(-c3nc4n(c3-c3ccccc3)COc3ccncc3-4)cc2)C1		human, advanced or metastatic solid tumours	once daily, dose escalation total		patients with grade ≥3 Dyspnea TEAE	11.1%
CCCCCCCCCN(C)C	RT-S9 substrate depletion	rainbow trout	unit not given	reference: shaken over non-shaken	depletion rate increase	~2
C=CCNc1c(O)cc2c(O)c1C[C@@H](C)C[C@H](OC)[C@H](O)[C@@H](C)/C=C(\C)[C@H](OC(N)=O)[C@@H](OC)/C=C\C=C(/C)C(=O)N2		unresectable or metastatic STS, GIST, other	intravenous, 150 mg/m^2		patients with infusion site pain	33%
CC(C)[C@H](C(=O)O[C@H](C#N)c1cccc(Oc2ccccc2)c1)c1ccc(Cl)cc1	item: CYP2C8	human, age 5 years			enzyme contribution to clearance	0.93%
C[C@@H](NC(=O)N1C(=O)[C@H](Cc2ccnc(N)c2)[C@H]1C(=O)O)C1CCCCC1		healthy Chinese adult volunteers	continuous intravenous infusion, dose not given, 5.0 days, CTCAE 5.0, all doses		urine ketone body positive	2.5%
O[C@H]1CCCN[C@@H]1CCCn1cnc2c(Cl)c(Cl)ccc21		healthy humans, plasma	oral, 150 mg, with: pirfenidone 600 mg		Vd/F at steady state	921 L
COc1cc2c(Oc3ccc4[nH]c(C)cc4c3F)ccnc2cc1OCC1(N)CC1		paediatric recurrent refractory sarcoma	8 mg		grade 3 Tinnitus	0%
COc1ccc(C[C@@H]2NC(=O)[C@H]([C@@H](C)O)NC(=O)[C@@H]3[C@@H]4CCN3C(=O)[C@@H]3Cc5cn(c6ccc(F)cc56)CCCCCCN(Cc5ccc(cc5)CCNC(=O)[C@]5(C)CCCN5C2=O)C(=O)CCC(=O)N[C@@H](C)C(=O)N[C@H](CNC(=O)CCCCC[N+](C)(C)C)C(=O)N[C@@H](Cc2cccc(c2)CNC(=O)CO4)C(=O)N3)cc1	item: Headache	humans	concentration not given, Study-003		participants with adverse event	16.1%
Cn1c(-c2ccc(C(N)=O)cc2F)nnc1C(C)(C)Oc1c(F)cc(Cl)cc1F		human	oral, 3 mg, single ascending dose		vessel puncture site pain	0%
CC(=O)c1c(C)c2cnc(Nc3ccc(C4CCN(CCS(C)(=O)=O)CC4)cn3)nc2n(C2CCCC2)c1=O		human, plasma	oral, 25 mg once daily, day 1, single dose		Vd	578 L
Nc1nc2cc(-c3ccc4ncc(C(=O)N5CCOCC5)n4c3)ccc2o1		advanced solid tumour patients	dose not given, once-daily dosing	reference: patients	grade ≥3 drug-related AEs	25%
CC[C@H](C)CCCCC(=O)N[C@@H](CCN)C(=O)N[C@H](C(=O)N[C@@H](CCN)C(=O)N[C@H]1CCNC(=O)[C@H]([C@@H](C)O)NC(=O)[C@H](CCN)NC(=O)[C@H](CCN)NC(=O)[C@H](CC(C)C)NC(=O)[C@@H](Cc2ccccc2)NC(=O)[C@H](CCN)NC1=O)[C@@H](C)O		critically ill non-survivors, plasma	intravenous, 2.2 mg/kg/day, 6 h, median		concentration at steady state	1900 ng/mL
N#C[C@@H]1CC(F)(F)CN1C(=O)CNC(=O)c1ccnc2ccc(OCCCN3CCN(C(=O)CN4CCN(CC(=O)[O-])CCN(CC(=O)[O-])CC4)CC3)cc12.[18F-].[Al+3]	biodistribution, gamma counter	healthy rats, brain, muscle, bone, lung, spleen, liver, heart, blood	2 h post-injection		tissue uptake	< 0.52 %ID/g
COC[C@@]12CC[C@H](OC)[C@]34C(C([C@H](OC)[C@H]13)[C@]1(OC(C)=O)[C@H]3[C@@H](OC(=O)c5ccccc5)[C@](O)(C[C@H]34)[C@@H](OC)[C@@H]1O)N(C)C2		Sprague-Dawley rat, plasma	oral, dose not given, with NADES in PCW extract		MRT(0-t)	1.78 ± 0.155 h
Brc1ccc(Oc2cc(Br)c(Br)cc2Br)c(Br)c1		cow whole milk	2000 nM	reference: milk fat over skim milk	milk fat partition ratio	189
O=C(O)CCCOc1ccc(F)cc1-c1cc(-c2ccccc2C(F)(F)F)n(-c2ccccc2)n1		female Crl:CD(SD) rats, salivary glands	intravenous, 25 µg/kg, 1 d		organ weight	0.42 ± 0.03 g

SMILES	assay	test system	conditions	how to read	endpoint	value
CCN1[C@@H](C(=O)NC23CCC(C(=O)O)(CC2)CC3)[C@H](c2cccc(Cl)c2F)[C@]2(C(=O)Nc3cc(Cl)ccc32)C12CCCCC2		patients with advanced solid tumours	oral, 200 mg		grade ≥3 Leukopenia incidence	50%
Cc1cc(C)c(CNC(=O)c2cc(Cl)c3c(c2C)O[C@@](C)([C@H]2CC[C@H](N(C)C)CC2)O3)c(=O)[nH]1		relapsed/refractory NHL patients	dose not given, treatment-related TEAEs, safety set		grade 5 acute myeloid leukaemia incidence	0%
CC1(C)NC(=O)N(c2ccc(F)c(OC(F)(F)F)c2)C1=O		Schistosoma mansoni-infected NMRI mice	oral, 100 mg/kg, single dose		toxicity	toxic
C[C@]1(CO)Cc2ncn(-c3ccc(C#N)c(Cl)c3)c2C(=O)O1		human, plasma	oral, 10 mg single dose, fasted		AUC(0-inf) geometric mean	2.33 µM·h
CO[C@H]1C[C@@H]2CC[C@@H](C)[C@@](O)(O2)C(=O)C(=O)N2CCCC[C@H]2C(=O)O[C@H]([C@H](C)C[C@@H]2CC[C@@H](OC(=O)NCCOCCOCCOCCOCCOCCOCCOCCOCCC(=O)N3CCc4cc(Cn5nc(-c6ccc7oc(N)nc7c6)c6c(N)ncnc65)ccc4C3)[C@H](OC)C2)C[C@@H](O)[C@H](C)/C=C(\C)[C@@H](O)[C@@H](OC)C(=O)[C@H](C)C[C@H](C)/C=C/C=C/C=C/1C	phase 1 dose escalation, item: mucositis	advanced solid tumour patients	intravenous, 16 mg weekly, grade ≥3		TRAE incidence	25%
CCN(CCO)CCCC(C)Nc1ccnc2cc(Cl)ccc12 (stereo not drawn)		newly diagnosed glioblastoma patients	oral, 400 mg/dose, grade 1, with: radiotherapy and temozolomide		fatigue patients	57%
O=c1cc(-c2ccc(O)c(O)c2)oc2cc(O)cc(O)c12		Sprague-Dawley rat, male, obese, urine	oral, 100 mg/kg neohesperidin, 48 h	reference: dose	urinary recovery	0.019 ± 0.002%
COc1ccc([C@@H](O)c2cc(-c3ncnc4cc(N5CCOCC5)ccc34)c(F)cc2Cl)nn1		patients, advanced solid tumours	oral, 400 mg twice daily, treatment-emergent, with: avelumab	reference: patients	vascular disorders incidence	1%
CC(C)c1nc(N(C)S(C)(=O)=O)nc(-c2ccc(F)cc2)c1/C=C/[C@@H](O)C[C@@H](O)CC(=O)O		healthy human subjects	oral, dose not given, study CL-0537 safety set		incidence of Polyuria	0%
CN1CCN(S(=O)(=O)c2cc([N+](=O)[O-])ccc2N(CCOS(C)(=O)=O)CCOS(C)(=O)=O)CC1		naive NOD/SCID mice, pooled blood	intraperitoneal, 18.8 mg/kg, week 4		phosphate	2.1 mmol/L
CCCCCCCCCCCCCCCC(=O)N[C@@H](CCC(=O)NCCCC[C@H](NC(=O)[C@H](CC(=O)O)NC(=O)[C@H](CO)NC(=O)[C@@H](NC(=O)[C@H](Cc1ccccc1)NC(=O)[C@@H](NC(=O)CNC(=O)[C@H](CCC(N)=O)NC(=O)[C@H](CO)NC(=O)[C@@H](N)Cc1c[nH]cn1)[C@@H](C)O)[C@@H](C)O)C(=O)N[C@@H](CO)C(=O)N[C@@H](CCC(=O)O)C(=O)N[C@@H](Cc1ccc(O)cc1)C(=O)N[C@@H](CC(C)C)C(=O)N[C@@H](CC(=O)O)C(=O)N[C@@H](CO)C(=O)N[C@@H](CCC(=O)O)C(=O)N[C@@H](CCCNC(=N)N)C(=O)N[C@@H](C)C(=O)N[C@@H](CCCNC(=N)N)C(=O)N[C@@H](CC(=O)O)C(=O)N[C@@H](Cc1ccccc1)C(=O)N[C@H](C(=O)N[C@@H](C)C(=O)N[C@@H](Cc1c[nH]c2ccccc12)C(=O)N[C@@H](CC(C)C)C(=O)N[C@@H](CCC(=O)O)C(=O)N[C@@H](C)C(=O)NCC(=O)NCC(=O)O)C(C)C)C(=O)O	item: Tachycardia	humans CrCl 20 to 30 mL/min	subcutaneous, 100 µg single dose		treatment-related adverse events	12.5%
CCc1ccc(CC/C=C/c2ccc3c(c2)C(=O)CC3)cc1		Sprague-Dawley rat, female, blood	oral, 120 mg/kg/day, 14 days		mean platelet volume	10.9 fL
Cn1ncc(-c2nc(N[C@H]3CC[C@H](N)CC3)ncc2Cl)c1CC1CC1	HPLC-MS/MS	patients, plasma	oral, 5 mg, day 5		Cmax	25.7 ng/mL
O=C(Nc1ccccc1)C1CCN(C(=O)Oc2cccnc2)CC1		healthy female subjects	oral, 100 mg		subjects with vascular disorder AEs	7.7%
CC(C)CC(=O)OC[C@H]1O[C@@](C#N)(c2ccc3c(N)ncnn23)[C@H](O)[C@@H]1O	plasma protein binding	human plasma	90 µM, time not given		recovery	93.6%
CN1CC[C@@H](c2c(O)cc(O)c3c(=O)cc(-c4ccc(C(F)(F)F)cc4Cl)oc23)[C@@H]1CO	item: Anemia	AML	oral, 200 mg, intermittent dosing		patients with adverse event	30%
CC(C)n1c(C2CCNCC2)nc2c([N+](=O)[O-])c(Br)c(Br)cc21		patients with AML	125 mg		AE of any grade	40%
CC(C)C[C@H](NC(=O)[C@H](CCCCN)NC(=O)OCC1c2ccccc2-c2ccccc21)C(=O)N[C@H](C(=O)N[C@@H](Cc1ccccc1)C(=O)N[C@@H](Cc1ccccc1)C(=O)N[C@@H](CCCCN)C(=O)NCC(=O)N[C@@H](Cc1ccccc1)C(=O)N[C@@H](C)C(=O)N[C@@H](Cc1c[nH]c2ccccc12)C(=O)N[C@@H](CC(N)=O)C(=O)N[C@H](C(=O)N[C@H]1CSSC[C@@H](C(=O)N[C@@H](Cc2c[nH]cn2)C(=O)N[C@@H](CCCNC(=N)N)C(=O)N[C@@H](CCCNC(=N)N)C(=O)N[C@@H](C)C(=O)N[C@@H](CC(N)=O)C(N)=O)NC(=O)[C@H](C(C)C)NC(=O)[C@H](CCCNC(=N)N)NC(=O)[C@H](C(C)C)NC(=O)CNC(=O)[C@H](CC(N)=O)NC(=O)[C@H](CCCNC(=N)N)NC(=O)[C@H](Cc2ccc(O)cc2)NC(=O)[C@H](C(C)C)NC1=O)C(C)C)C(C)C		ICR mouse, blood	intramammary, 10 mg/kg, day 5, 3 d dosing		globulin	18.91 ± 0.18 g/L
